Literature values as cited in several papers.
Protocols differ between the studies behind these lines. ± gives the spread as reported.
Sequence of UniProt Q8N568 (whole entry, looked up): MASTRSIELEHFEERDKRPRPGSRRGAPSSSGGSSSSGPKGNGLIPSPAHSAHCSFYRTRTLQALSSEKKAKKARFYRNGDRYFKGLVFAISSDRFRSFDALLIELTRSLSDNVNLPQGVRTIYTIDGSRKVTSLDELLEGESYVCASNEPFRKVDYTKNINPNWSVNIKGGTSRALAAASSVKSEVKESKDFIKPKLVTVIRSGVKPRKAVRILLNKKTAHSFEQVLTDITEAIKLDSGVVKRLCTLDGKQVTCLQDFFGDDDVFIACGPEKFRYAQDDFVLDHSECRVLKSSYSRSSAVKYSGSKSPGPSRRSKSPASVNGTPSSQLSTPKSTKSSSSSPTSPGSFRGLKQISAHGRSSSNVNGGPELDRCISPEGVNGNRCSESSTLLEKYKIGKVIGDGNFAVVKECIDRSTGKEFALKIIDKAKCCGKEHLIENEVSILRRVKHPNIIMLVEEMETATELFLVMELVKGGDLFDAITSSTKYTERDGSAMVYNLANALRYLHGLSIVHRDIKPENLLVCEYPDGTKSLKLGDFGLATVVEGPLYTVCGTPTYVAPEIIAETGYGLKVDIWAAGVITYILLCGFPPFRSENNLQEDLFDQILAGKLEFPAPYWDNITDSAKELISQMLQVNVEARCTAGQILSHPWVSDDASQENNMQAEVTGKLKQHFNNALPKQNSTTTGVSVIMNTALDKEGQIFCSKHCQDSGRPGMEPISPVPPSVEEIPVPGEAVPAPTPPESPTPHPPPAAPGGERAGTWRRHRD

SMILES | target or system | assay | test system | setting | scale | measurement | result
Nc1cc(C(F)(F)F)c(-c2nc(N3CCOCC3)nc(N3CCOCC3)n2)cn1 | DCLK2 (Homo sapiens, UniProt Q8N568) | enzyme activity | – | 10 µM | baseline: untreated | remaining activity | 100%
Cc1cc(C)c(CNC(=O)c2cc(Cl)c3c(c2C)O[C@@](C)([C@H]2CC[C@H](N(C)C)CC2)O3)c(=O)[nH]1 | – | – | human | 25 mg | – | AUC(0-inf) | 737 ng·h/mL
C[C@@H](Oc1ccc(S(C)(=O)=O)cc1C(=O)N1C[C@@H]2C[C@]2(c2cc(C(F)(F)F)on2)C1)C(F)(F)F | – | – | human | oral, 50 mg, solution, fasted, single dose | – | AUC(0-inf) | 17.1 µM·h
Cc1ccccc1CN1C(=O)C2=C(CCN(Cc3ccccc3)C2)N2CCN=C12 | – | – | human | oral, 625 mg, fasted, single dose | – | AUC(0-inf) | 18700 ng·h/mL
C[C@H]1CO[C@@H]2Cn3cc(C(=O)NCc4ccc(F)cc4F)c(=O)c(O)c3C(=O)N12 | – | – | human | oral solution, 10 mg, geometric mean | – | AUC(0-inf) | 62400 ng·h/mL
C=CC(=O)Nc1cc(Nc2nccc(-c3cn(C)c4ccccc34)n2)c(OCC(F)(F)F)nc1N(C)CCN(C)C | – | – | healthy human | 80 mg, single dose | – | AUC(0-inf) | 907 ng·h/mL
Cn1cncc1[C@@](N)(c1ccc(Cl)cc1)c1ccc2c(c1)c(-c1cccc(Cl)c1)cc(=O)n2C | – | – | human | 200 mg/m2 | – | AUC(0-inf) | 4840 ng·h/mL
CNCc1cc(-c2ccccc2F)n(S(=O)(=O)c2cccnc2)c1 | – | – | human | 20 mg, single dose | – | AUC(0-inf) | 158 ng·h/mL
Cn1c(Cn2ccc(C(F)(F)F)c(Oc3cc(Cl)cc(C#N)c3)c2=O)n[nH]c1=O | – | – | human | 1200 mg single dose | – | AUC(0-inf) | 250 µM·h
Cc1nsc(-c2nnc3n2CCN(C(=O)c2ccc(F)cc2)[C@@H]3C)n1 | – | – | human | oral, 45 mg, single dose, formulation | – | AUC(0-inf) | 3960 ng·h/mL
COc1cc2c(Oc3ccc4[nH]c(C)cc4c3F)ccnc2cc1OCC1(N)CC1 | – | – | human | 16 mg single dose | – | AUC(0-inf) | 1580 ± 470 ng·h/mL
CC(C)c1nc(N(C)S(C)(=O)=O)nc(-c2ccc(F)cc2)c1/C=C/[C@@H](O)C[C@@H](O)CC(=O)O | – | BCRP substrate | human, plasma | dose not given, together with: pirtobrutinib multiple doses | – | AUC(0-inf) | 207 ng·h/mL
C#C[C@]1(O)CC[C@H]2[C@@H]3CCC4=CC(=NO)CC[C@@H]4[C@H]3CC[C@@]21CC (mixture of isomers) | – | – | human | 0.18 mg norgestimate single dose, fasted | – | AUC(0-inf) | 9.52 ng·h/mL

A few entries again:
SMILES | target or system | assay | test system | setting | scale | measurement | result
C=CC(=O)Nc1cc(Nc2nccc(-c3cn(C)c4ccccc34)n2)c(OCC(F)(F)F)nc1N(C)CCN(C)C | – | – | healthy human | 80 mg, single dose | – | AUC(0-inf) | 907 ng·h/mL
